Published values gathered from unrelated publications.
Compare with care: the assays were run in different laboratories. ≈ marks a conversion by molar mass, not a printed value.
Organism: Candida albicans

SMILES	assay	system	conditions	quantity	value
CCCCn1ccc([C@H](C)[C@](O)(Cn2cnnn2)c2ccc(F)cc2F)n1	growth, broth microdilution	SC5314	24 h, 30 °C, ≥50% inhibition	MIC	< 0.008 µg/mL
CCCCCC1CC2CCCC3CC(C)N=C(N1)N32 (centres unmarked)	fungal growth	ATCC 90028		IC50	16.8 µM
C[C@@H](c1ccn(Cc2c(F)cccc2F)n1)[C@](O)(Cn1cnnn1)c1ccc(F)cc1F	growth, broth microdilution	SC5314	24 h, 30 °C, ≥50% inhibition	MIC	< 0.008 µg/mL
CCc1ccc(NC(=O)CSc2nc3ccccc3c(=O)n2-c2ccc(S(N)(=O)=O)cc2)cc1	microbial growth, well diffusion	ATCC10231	500 µg/mL, 72 h	inhibition zone	18 mm
C[C@@H](c1ccn(Cc2c(F)ccc(F)c2F)n1)[C@](O)(Cn1cnnn1)c1ccc(F)cc1F	growth, broth microdilution	SC5314	24 h, 30 °C, ≥50% inhibition	MIC	< 0.008 µg/mL
C/C(=N\Nc1nc(-c2ccccc2)cs1)c1ccc2c(c1)sc1nc(=O)c(C#N)cn12	microbial growth, broth dilution			MIC	< 238 µg/mL
CC1COC(=O)N1/N=C/c1ccc([N+](=O)[O-])o1 (centres unmarked)	microbial growth, broth dilution	ATCC14053	18 h	MIC	> 50 µg/mL
COC(=O)c1cnc(-c2cnccn2)cc1C(=O)OC.COC(=O)c1cnc(-c2cnccn2)cc1C(=O)OC.F[P-](F)(F)(F)(F)F.[Ag+]	crystal violet staining	ATCC 10231	MIC	biofilm formation	51%
CCN1CCN(Cn2nc(C34CC5CC(CC(C5)C3)C4)n(-c3ccccc3)c2=S)CC1		IFO 0583	200 µg/disc, 48 h, 37 °C	inhibition zone diameter	< 10 mm
C[C@@H](c1ccn(Cc2ccc(Cl)cc2)n1)[C@](O)(Cn1cnnn1)c1ccc(F)cc1F	growth, broth microdilution	SC5314	24 h, 30 °C, ≥50% inhibition	MIC	< 0.008 µg/mL
CCCCCCCCCC1CC2CCC3CC(CCCCCCCCC)NC(=N1)N23 (centres unmarked)	fungal growth	ATCC 90028		IC50	3.02 µM
C[C@@H](c1ccn(Cc2cccc(C(F)(F)F)c2)n1)[C@](O)(Cn1cnnn1)c1ccc(F)cc1F	growth, broth microdilution	SC5314	24 h, 30 °C, ≥50% inhibition	MIC	< 0.008 µg/mL
FC(F)(F)c1cc(CSc2nnc(C34CC5CC(CC(C5)C3)C4)n2-c2ccccc2)cc(C(F)(F)F)c1	microbial growth, disc diffusion	IFO0583	200 µg/disc, 48 h	inhibition zone	13 mm
O=c1c2ccccc2sn1-c1cc(Br)cc(Br)c1	growth, broth dilution	ATCC 64124	MIC-0	MIC	6.25 µg/mL (≈ 16.2 µM)
CC(C)=CCc1cc2c(cc1O)OCc1c-2oc2c(CC=C(C)C)c(O)ccc12		ATCC 10231	concentration not given	antibacterial activity	inactive
C[C@@H](c1ccn(Cc2ccc(Cl)c(Cl)c2)n1)[C@](O)(Cn1cnnn1)c1ccc(F)cc1F	growth, broth microdilution	SC5314	24 h, 30 °C, ≥50% inhibition	MIC	< 0.008 µg/mL
Cc1cc([N+](=O)[O-])ccc1NC(=O)CSc1nc2ccccc2c(=O)n1-c1ccc(S(N)(=O)=O)cc1		ATCC 10231		MBC	2.12 µg/mL (≈ 4.03 µM)
C[C@@H](c1ccn(Cc2ccc(C(C)(C)C)cc2)n1)[C@](O)(Cn1cnnn1)c1ccc(F)cc1F	growth, broth microdilution	SC5314	24 h, 30 °C, ≥50% inhibition	MIC	2 µg/mL (≈ 4.29 µM)
N=C(N)NCCC[C@@H]1NC(=O)[C@H](CCCNC(=N)N)NC(=O)[C@H](CCCNC(=N)N)NC(=O)[C@H](Cc2ccc3ccccc3c2)NC(=O)[C@H](Cc2c[nH]c3ccccc23)NC(=O)[C@H](Cc2ccc3ccccc3c2)NC(=O)[C@H](CCCNC(=N)N)NC1=O	XTT	ATCC 60193	2 × MIC	biofilm mass reduction	60 to 62%

SMILES	assay	system	conditions	quantity	value
COc1ccc(/N=N/C(=S)N2CCOCC2)cc1	microbial growth	ATCC10231	24 h	IC50	> 50 µM
Cc1cccc([N+](=O)[O-])c1NC(=O)CSc1nc2ccccc2c(=O)n1-c1ccc(S(N)(=O)=O)cc1	microbial growth, well diffusion	ATCC10231	500 µg/mL, 72 h	inhibition zone	22 mm
CC(C)=CCc1cc([C@@H]2CC(=O)c3ccc(O)c(CC=C(C)C)c3O2)c(O)c(CC=C(C)C)c1O		ATCC 10231	concentration not given	antibacterial activity	inactive
CCCn1ccc([C@H](C)[C@](O)(Cn2cnnn2)c2ccc(F)cc2F)n1	growth, broth microdilution	SC5314	24 h, 30 °C, ≥50% inhibition	MIC	0.0156 µg/mL (≈ 0.043 µM)
CCN(CC)CCn1nc(C23CC4CC(CC(C4)C2)C3)n(C)c1=S		IFO 0583	200 µg/disc, 48 h, 37 °C	inhibition zone diameter	< 10 mm
CC(C)=CCc1cc([C@@H]2CC(=O)c3c(O)cc(O)c(CC=C(C)C)c3O2)cc(CC=C(C)C)c1O		ATCC 10231	concentration not given	antibacterial activity	inactive
COc1ccc(NC(=O)CSc2nc3ccccc3c(=O)n2-c2ccc(S(N)(=O)=O)cc2)cc1	microbial growth, well diffusion	ATCC10231	500 µg/mL, 72 h	inhibition zone	21 mm
COc1ccccc1N1CCN(Cn2nc(C34CC5CC(CC(C5)C3)C4)n(-c3ccccc3)c2=S)CC1		IFO 0583	200 µg/disc, 48 h, 37 °C	inhibition zone diameter	< 10 mm
CCc1ccccc1NC(=O)CSc1nc2ccccc2c(=O)n1-c1ccc(S(N)(=O)=O)cc1	microbial growth, well diffusion	ATCC10231	500 µg/mL, 72 h	inhibition zone	21 mm
CC(=NNC(=N)N)c1nnn(-c2ccc(C#CC3(O)CCCCC3)cc2)c1C		ATCC 10231		MBC	31.2 µg/mL (≈ 82.4 µM)
COc1ccc(/N=N/C(=S)N2CCCC2)cc1	microbial growth	ATCC10231	24 h	IC50	> 50 µM
Cn1c(SCCN2CCCC2)nnc1C12CC3CC(CC(C3)C1)C2		IFO 0583	200 µg/disc, 48 h, 37 °C	inhibition zone diameter	< 10 mm
COc1ccc2c(oc3c4ccc(O)cc4oc(=O)c23)c1CC=C(C)C		ATCC 10231	concentration not given	antibacterial activity	inactive
Fc1ccc(CSc2nnc(C34CC5CC(CC(C5)C3)C4)n2-c2ccccc2)cc1		IFO 0583	200 µg/disc, 48 h, 37 °C	inhibition zone diameter	< 10 mm
CC(=O)[O-].O.O.[O-]c1ccc(Br)cc1C=NCCN1CCOCC1.[Zn+2]			20 µL of 100 µM per disc	inhibition zone diameter	27 mm
CCN(CC)CCSc1nnc(C23CC4CC(CC(C4)C2)C3)n1C		IFO 0583	200 µg/disc, 48 h, 37 °C	inhibition zone diameter	< 10 mm
CCCCCCCCCC1CC2CCCC3CC(CCCCCCCCC)NC(=N1)N23 (centres unmarked)	fungal growth	ATCC 90028		IC50	3.89 µM
Cn1c(C23CC4CC(CC(C4)C2)C3)nn(CCN2CCCC2)c1=S		IFO 0583	200 µg/disc, 48 h, 37 °C	inhibition zone diameter	< 10 mm
COc1cc(NC(=O)CSc2nc3ccccc3c(=O)n2-c2ccc(S(N)(=O)=O)cc2)cc(OC)c1	microbial growth, well diffusion	ATCC10231	500 µg/mL, 72 h	inhibition zone	20 mm
